Results collected from several papers.
Every numbered part comes from another study and shows a few of its results, in no order.
UniProt Q09013, sequence (whole entry, looked up): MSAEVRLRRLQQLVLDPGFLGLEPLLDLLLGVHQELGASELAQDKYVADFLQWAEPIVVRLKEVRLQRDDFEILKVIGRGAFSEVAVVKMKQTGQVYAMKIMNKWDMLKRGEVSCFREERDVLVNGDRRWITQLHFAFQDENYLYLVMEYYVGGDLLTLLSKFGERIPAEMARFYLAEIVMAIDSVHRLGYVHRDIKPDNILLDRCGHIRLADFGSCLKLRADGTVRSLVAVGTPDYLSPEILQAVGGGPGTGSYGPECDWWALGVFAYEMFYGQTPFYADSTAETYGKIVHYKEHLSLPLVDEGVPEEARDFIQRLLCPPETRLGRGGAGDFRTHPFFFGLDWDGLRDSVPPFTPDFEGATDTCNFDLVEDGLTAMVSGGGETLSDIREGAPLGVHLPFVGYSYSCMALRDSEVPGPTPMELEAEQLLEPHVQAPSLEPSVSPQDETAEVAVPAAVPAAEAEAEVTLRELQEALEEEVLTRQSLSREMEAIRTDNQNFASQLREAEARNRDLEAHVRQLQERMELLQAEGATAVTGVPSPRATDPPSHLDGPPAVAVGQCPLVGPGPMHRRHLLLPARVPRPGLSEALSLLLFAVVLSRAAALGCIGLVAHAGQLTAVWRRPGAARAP
UniProt P08588, sequence (whole entry, looked up): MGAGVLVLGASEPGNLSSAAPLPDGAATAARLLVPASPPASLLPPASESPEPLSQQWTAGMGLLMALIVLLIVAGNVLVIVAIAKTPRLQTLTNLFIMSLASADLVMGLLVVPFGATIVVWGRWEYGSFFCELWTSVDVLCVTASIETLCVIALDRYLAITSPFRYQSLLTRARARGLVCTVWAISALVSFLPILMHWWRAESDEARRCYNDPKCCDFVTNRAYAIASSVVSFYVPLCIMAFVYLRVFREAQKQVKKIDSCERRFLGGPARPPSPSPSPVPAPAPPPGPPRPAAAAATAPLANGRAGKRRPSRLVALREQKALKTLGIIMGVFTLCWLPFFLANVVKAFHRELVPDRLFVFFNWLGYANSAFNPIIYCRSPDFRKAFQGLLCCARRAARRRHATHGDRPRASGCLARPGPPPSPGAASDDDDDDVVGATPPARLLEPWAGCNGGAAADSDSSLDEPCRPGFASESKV
UniProt P18825, sequence (whole entry, looked up): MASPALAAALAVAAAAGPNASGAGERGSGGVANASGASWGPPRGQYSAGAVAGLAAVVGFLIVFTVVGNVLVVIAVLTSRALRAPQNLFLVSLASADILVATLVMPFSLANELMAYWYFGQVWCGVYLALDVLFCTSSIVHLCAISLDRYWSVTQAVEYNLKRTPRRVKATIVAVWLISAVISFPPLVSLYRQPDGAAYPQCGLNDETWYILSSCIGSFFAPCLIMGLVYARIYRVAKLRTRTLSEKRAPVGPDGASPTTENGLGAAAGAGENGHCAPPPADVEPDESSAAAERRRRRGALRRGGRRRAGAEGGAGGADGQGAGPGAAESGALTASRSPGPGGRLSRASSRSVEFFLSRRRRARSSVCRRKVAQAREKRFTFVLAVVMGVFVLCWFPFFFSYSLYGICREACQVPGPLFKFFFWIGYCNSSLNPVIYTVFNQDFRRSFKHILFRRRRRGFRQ
UniProt Q9Y5N1, sequence (whole entry, looked up): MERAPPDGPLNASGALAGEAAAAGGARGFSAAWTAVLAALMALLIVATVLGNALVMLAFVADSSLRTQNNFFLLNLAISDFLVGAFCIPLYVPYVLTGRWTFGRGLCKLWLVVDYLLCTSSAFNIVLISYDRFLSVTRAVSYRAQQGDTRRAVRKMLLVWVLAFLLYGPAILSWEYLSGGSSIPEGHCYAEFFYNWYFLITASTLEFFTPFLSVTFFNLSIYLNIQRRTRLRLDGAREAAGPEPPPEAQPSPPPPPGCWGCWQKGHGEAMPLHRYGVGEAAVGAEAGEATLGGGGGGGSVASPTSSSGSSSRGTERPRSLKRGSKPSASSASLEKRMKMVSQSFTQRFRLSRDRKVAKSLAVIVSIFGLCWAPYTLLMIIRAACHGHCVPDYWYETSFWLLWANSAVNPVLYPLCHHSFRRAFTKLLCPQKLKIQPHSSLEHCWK
UniProt P25100, sequence (whole entry, looked up): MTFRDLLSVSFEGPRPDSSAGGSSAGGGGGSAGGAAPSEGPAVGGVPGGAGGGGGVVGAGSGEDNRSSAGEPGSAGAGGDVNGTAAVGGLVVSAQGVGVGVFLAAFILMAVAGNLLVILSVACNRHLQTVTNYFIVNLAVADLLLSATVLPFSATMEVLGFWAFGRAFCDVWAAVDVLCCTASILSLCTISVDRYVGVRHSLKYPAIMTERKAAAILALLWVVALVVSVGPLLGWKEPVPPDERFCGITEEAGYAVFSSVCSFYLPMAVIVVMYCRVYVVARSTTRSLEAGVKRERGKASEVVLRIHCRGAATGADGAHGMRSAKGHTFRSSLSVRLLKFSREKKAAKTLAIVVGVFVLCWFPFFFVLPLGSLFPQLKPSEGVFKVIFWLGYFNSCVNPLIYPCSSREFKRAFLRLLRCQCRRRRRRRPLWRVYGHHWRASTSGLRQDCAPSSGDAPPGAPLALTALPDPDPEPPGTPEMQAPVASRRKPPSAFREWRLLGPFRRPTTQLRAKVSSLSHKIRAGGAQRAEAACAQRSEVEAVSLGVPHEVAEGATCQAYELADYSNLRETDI
UniProt O14965, sequence (whole entry, looked up): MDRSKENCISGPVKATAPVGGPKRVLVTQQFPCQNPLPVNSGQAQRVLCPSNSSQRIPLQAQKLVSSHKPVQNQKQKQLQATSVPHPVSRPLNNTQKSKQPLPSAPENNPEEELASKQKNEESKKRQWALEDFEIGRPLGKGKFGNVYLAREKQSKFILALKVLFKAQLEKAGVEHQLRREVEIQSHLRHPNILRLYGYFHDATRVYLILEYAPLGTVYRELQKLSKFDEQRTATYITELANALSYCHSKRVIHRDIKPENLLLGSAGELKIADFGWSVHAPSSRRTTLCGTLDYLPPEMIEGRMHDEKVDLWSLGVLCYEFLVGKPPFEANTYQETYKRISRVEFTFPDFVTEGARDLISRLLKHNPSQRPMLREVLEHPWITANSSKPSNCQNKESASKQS
UniProt Q9NYM4, sequence (whole entry, looked up): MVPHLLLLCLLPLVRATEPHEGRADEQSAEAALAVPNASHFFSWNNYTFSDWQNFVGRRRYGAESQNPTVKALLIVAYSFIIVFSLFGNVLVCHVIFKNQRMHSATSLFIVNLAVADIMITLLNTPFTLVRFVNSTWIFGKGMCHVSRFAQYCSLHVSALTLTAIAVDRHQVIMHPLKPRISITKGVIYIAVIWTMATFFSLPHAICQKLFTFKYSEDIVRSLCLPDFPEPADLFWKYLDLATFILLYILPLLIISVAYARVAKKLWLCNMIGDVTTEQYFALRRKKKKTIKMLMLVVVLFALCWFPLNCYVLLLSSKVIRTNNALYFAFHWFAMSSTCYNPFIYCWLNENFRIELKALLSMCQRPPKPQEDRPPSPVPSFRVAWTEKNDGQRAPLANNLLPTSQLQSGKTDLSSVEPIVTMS
UniProt P25021, sequence (whole entry, looked up): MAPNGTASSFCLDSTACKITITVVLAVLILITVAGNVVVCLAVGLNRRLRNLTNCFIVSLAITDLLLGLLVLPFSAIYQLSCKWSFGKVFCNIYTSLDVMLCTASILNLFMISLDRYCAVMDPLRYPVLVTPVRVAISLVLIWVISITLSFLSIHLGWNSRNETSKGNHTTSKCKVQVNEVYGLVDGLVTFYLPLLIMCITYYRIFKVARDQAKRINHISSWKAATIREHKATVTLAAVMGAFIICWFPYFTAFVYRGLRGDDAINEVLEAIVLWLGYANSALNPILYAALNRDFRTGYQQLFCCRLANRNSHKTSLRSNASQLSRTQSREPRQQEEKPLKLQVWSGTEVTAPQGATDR
UniProt P41594, sequence (whole entry, looked up): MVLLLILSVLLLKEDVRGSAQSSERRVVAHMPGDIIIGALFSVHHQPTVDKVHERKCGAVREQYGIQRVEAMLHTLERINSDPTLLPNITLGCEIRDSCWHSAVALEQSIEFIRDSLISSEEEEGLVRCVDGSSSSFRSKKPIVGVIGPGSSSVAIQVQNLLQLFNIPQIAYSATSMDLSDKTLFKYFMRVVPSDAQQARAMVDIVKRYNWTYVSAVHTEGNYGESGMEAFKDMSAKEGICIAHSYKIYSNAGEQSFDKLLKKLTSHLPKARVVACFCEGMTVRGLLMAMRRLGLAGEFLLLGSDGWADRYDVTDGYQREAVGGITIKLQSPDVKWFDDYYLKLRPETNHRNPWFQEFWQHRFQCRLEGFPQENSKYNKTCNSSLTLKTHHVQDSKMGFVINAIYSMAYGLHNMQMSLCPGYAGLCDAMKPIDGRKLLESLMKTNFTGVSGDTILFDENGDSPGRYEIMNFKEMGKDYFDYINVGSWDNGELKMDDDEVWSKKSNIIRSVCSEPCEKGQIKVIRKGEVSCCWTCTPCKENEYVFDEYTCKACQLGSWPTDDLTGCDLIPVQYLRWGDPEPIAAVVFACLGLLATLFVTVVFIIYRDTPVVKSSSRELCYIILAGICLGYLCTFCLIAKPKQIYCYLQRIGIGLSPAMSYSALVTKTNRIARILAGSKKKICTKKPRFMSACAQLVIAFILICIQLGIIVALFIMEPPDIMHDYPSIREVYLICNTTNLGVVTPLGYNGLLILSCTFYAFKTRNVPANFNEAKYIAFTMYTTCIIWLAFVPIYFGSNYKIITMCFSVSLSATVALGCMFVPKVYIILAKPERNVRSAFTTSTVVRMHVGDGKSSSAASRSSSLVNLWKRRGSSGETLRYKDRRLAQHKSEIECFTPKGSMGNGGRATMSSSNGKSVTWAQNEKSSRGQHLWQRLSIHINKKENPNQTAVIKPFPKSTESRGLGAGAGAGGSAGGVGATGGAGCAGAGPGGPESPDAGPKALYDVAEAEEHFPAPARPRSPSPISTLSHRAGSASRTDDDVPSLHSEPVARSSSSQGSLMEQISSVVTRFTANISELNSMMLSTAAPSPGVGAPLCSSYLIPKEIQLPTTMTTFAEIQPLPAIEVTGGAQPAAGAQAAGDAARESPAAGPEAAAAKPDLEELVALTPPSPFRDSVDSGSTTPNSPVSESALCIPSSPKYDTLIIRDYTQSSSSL

Sample 1 — read-out: β-arrestin recruitment; mode: agonist; method: PRESTO-Tango; concentration: 10 µM; relative to: untreated; measurement: fold over basal
Compound: N=C(N)NC(=O)c1cnn(-c2cccc3ncccc23)c1C1CC1
Metabotropic glutamate receptor 5 (GRM5, Homo sapiens, UniProt P41594): 0.99 fold
Lysophosphatidic acid receptor 2 (LPAR2, Homo sapiens, UniProt Q9HBW0): 1.53
Alpha-2C adrenergic receptor (ADRA2C, Homo sapiens, UniProt P18825): 1.6
Probable G-protein coupled receptor 19 (GPR19, Homo sapiens, UniProt Q15760): 0.83
Prokineticin receptor 1 (PROKR1, Homo sapiens, UniProt Q8TCW9): 1.25
Probable G-protein coupled receptor 174 (Homo sapiens, UniProt Q9BXC1): 1.03
Beta-1 adrenergic receptor (ADRB1, Homo sapiens, UniProt P08588): 1.26
Putative adhesion G protein-coupled receptor F2P (ADGRF2P, Homo sapiens, UniProt Q8IZF7): 1.39
G-protein coupled receptor 22 (GPR22, Homo sapiens, UniProt Q99680): 0.85
Probable G-protein coupled receptor 141 (GPR141, Homo sapiens, UniProt Q7Z602): 1.17
Alpha-1B adrenergic receptor (ADRA1B, Homo sapiens, UniProt P35368): 0.98
C-C chemokine receptor type 10 (CCR10, Homo sapiens, UniProt P46092): 0.7
Free fatty acid receptor 1 (FFAR1, Homo sapiens, UniProt O14842): 1.04 fold
Adhesion G protein-coupled receptor A2 (ADGRA2, Homo sapiens, UniProt Q96PE1): 0.92
Atypical chemokine receptor 3 (ACKR3, Homo sapiens, UniProt P25106): 1.33
G-protein coupled receptor 83 (GPR83, Homo sapiens, UniProt Q9NYM4): 0.89

Sample 2 — read-out: kinase activity; mode: inhibitor; concentration: 1 µM; measurement: remaining activity
SMILES: CC(C)S(=O)(=O)c1ccc2nccc(Nc3ccc4sc(C5CCCC5)nc4c3)c2c1
MAP kinase-interacting serine/threonine-protein kinase 2 (MKNK2, Homo sapiens, UniProt Q9HBH9): 102%
LIM domain kinase 1 (LIMK1, Homo sapiens, UniProt P53667): 82.5%
Serine/threonine-protein kinase pim-1 (PIM1, Homo sapiens, UniProt P11309): 100%
Activin receptor type-1 (ACVR1, Homo sapiens, UniProt Q04771): 112%
Cyclin-dependent kinase 9 (CDK9, Homo sapiens, UniProt P50750): 100%
Serine/threonine-protein kinase TBK1 (TBK1, Homo sapiens, UniProt Q9UHD2): 106%
Tyrosine-protein kinase Blk (BLK, Homo sapiens, UniProt P51451): 80.5%
Ribosomal protein S6 kinase beta-1 (RPS6KB1, Homo sapiens, UniProt P23443): 110%
Myotonin-protein kinase (DMPK, Homo sapiens, UniProt Q09013): 80%

Sample 3 — read-out: cell-free assay; concentration: 10 µM; measurement: inhibition
SMILES: Cn1nc(C(F)(F)F)cc1-c1cnc(N2CCc3cc(S(=O)(=O)Nc4c(F)cc(Cl)cc4F)cc(N4CCCC4=O)c32)nc1
D(1A) dopamine receptor (DRD1, Homo sapiens, UniProt P21728): -6.95%
Alpha-2C adrenergic receptor (ADRA2C, Homo sapiens, UniProt P18825): 17.9%
5-hydroxytryptamine receptor 2B (HTR2B, Homo sapiens, UniProt P41595): 24.7%
Muscarinic acetylcholine receptor M5 (CHRM5, Homo sapiens, UniProt P08912): 7.43%
Muscarinic acetylcholine receptor M4 (CHRM4, Homo sapiens, UniProt P08173): 41.2%
Beta-1 adrenergic receptor (ADRB1, Homo sapiens, UniProt P08588): -10.8%
Alpha-2B adrenergic receptor (ADRA2B, Homo sapiens, UniProt P18089): 18.5%
D(3) dopamine receptor (DRD3, Homo sapiens, UniProt P35462): 2.14%
Beta-2 adrenergic receptor (ADRB2, Homo sapiens, UniProt P07550): 17.4%
Histamine H1 receptor (HRH1, Homo sapiens, UniProt P35367): 10.2%
Histamine H4 receptor (HRH4, Homo sapiens, UniProt Q9H3N8): 10.9%
Alpha-1D adrenergic receptor (ADRA1D, Homo sapiens, UniProt P25100): -4.04%
D(2) dopamine receptor (DRD2, Homo sapiens, UniProt P14416): -0.24%
Histamine H3 receptor (HRH3, Homo sapiens, UniProt Q9Y5N1): 0.43%
Muscarinic acetylcholine receptor M2 (CHRM2, Homo sapiens, UniProt P08172): -10.6%
Histamine H2 receptor (HRH2, Homo sapiens, UniProt P25021): 12.1%

Sample 4 — read-out: enzyme activity; mode: inhibitor; concentration: 0.5 µM; relative to: control; measurement: remaining activity
SMILES: CSc1nc(-c2ccnc(N[C@@H](C)c3ccccc3)c2)c(-c2ccc(F)cc2)[nH]1 (racemic)
Serine/threonine-protein kinase N2 (PKN2, Homo sapiens, UniProt Q16513): 76.1%
Calcium/calmodulin-dependent protein kinase type 1G (CAMK1G, Homo sapiens, UniProt Q96NX5): 98.3%
Protein-tyrosine kinase 2-beta (PTK2B, Homo sapiens, UniProt Q14289): 100%
Serine/threonine-protein kinase D1 (PRKD1, Homo sapiens, UniProt Q15139): 90.1%
Myotonin-protein kinase (DMPK, Homo sapiens, UniProt Q09013): 80%
Aurora kinase A (AURKA, Homo sapiens, UniProt O14965): 99.9%
Dual specificity tyrosine-phosphorylation-regulated kinase 4 (DYRK4, Homo sapiens, UniProt Q9NR20): 91.4%
Serine/threonine-protein kinase Nek9 (NEK9, Homo sapiens, UniProt Q8TD19): 89.4%
Mitogen-activated protein kinase 10 (MAPK10, Homo sapiens, UniProt P53779): 125%
Epidermal growth factor receptor (EGFR, Homo sapiens, UniProt P00533): 87.1%
NT-3 growth factor receptor (NTRK3, Homo sapiens, UniProt Q16288): 93.6%
Cyclin-dependent kinase 7 (CDK7, Homo sapiens, UniProt P50613): 97.2%
Serine/threonine-protein kinase BRSK1 (BRSK1, Homo sapiens, UniProt Q8TDC3): 84.6%
Rho-associated protein kinase 2 (ROCK2, Homo sapiens, UniProt O75116): 95.3%
Cyclin-dependent kinase 2, with cyclin A (CDK2, Homo sapiens, UniProt P24941): 96.8%
STE20-like serine/threonine-protein kinase (SLK, Homo sapiens, UniProt Q9H2G2): 104%
Proto-oncogene tyrosine-protein kinase ROS (ROS1, Homo sapiens, UniProt P08922): 99.1%
G protein-coupled receptor kinase 5 (GRK5, Homo sapiens, UniProt P34947): 103%
Casein kinase II subunit alpha' (CSNK2A2, Homo sapiens, UniProt P19784): 88.8%
Proto-oncogene tyrosine-protein kinase receptor Ret (RET, Homo sapiens, UniProt P07949): 101%
Mitogen-activated protein kinase kinase kinase 2 (MAP3K2, Homo sapiens, UniProt Q9Y2U5): 101%
Mitogen-activated protein kinase kinase kinase 8 (MAP3K8, Homo sapiens, UniProt P41279): 88.6%
Calcium/calmodulin-dependent protein kinase type 1D (CAMK1D, Homo sapiens, UniProt Q8IU85): 91.7%
Homeodomain-interacting protein kinase 3 (HIPK3, Homo sapiens, UniProt Q9H422): 101%

Excerpt of the above (sample 2):
Tyrosine-protein kinase Blk (BLK, Homo sapiens, UniProt P51451): 80.5%
Serine/threonine-protein kinase TBK1 (TBK1, Homo sapiens, UniProt Q9UHD2): 106%
Cyclin-dependent kinase 9 (CDK9, Homo sapiens, UniProt P50750): 100%
Myotonin-protein kinase (DMPK, Homo sapiens, UniProt Q09013): 80%
Serine/threonine-protein kinase pim-1 (PIM1, Homo sapiens, UniProt P11309): 100%
Activin receptor type-1 (ACVR1, Homo sapiens, UniProt Q04771): 112%
LIM domain kinase 1 (LIMK1, Homo sapiens, UniProt P53667): 82.5%
MAP kinase-interacting serine/threonine-protein kinase 2 (MKNK2, Homo sapiens, UniProt Q9HBH9): 102%
Ribosomal protein S6 kinase beta-1 (RPS6KB1, Homo sapiens, UniProt P23443): 110%
